Measurements pooled from the literature.
A part holds a random share of what one study measured.

Study 1 — method: protein binding microarray; form: double-stranded DNA, one strand shown; matrix: in vitro; concentration: not given; relative to: not given; reading: higher = stronger binding
Target: Histone acetyltransferase KAT6A, both winged helices, GST fusion (KAT6A, Homo sapiens, UniProt Q92794, residues 1-181)
Notes: 8-mer, flanks averaged, mean of 2 arrays, mostly near background
Construct (chain): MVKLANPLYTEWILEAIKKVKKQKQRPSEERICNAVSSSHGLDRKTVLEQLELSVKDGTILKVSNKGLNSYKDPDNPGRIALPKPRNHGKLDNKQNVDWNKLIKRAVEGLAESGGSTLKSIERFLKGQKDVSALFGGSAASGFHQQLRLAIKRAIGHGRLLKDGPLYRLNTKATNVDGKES
| Oligonucleotide | E-score |
| --- | --- |
| CGTCGCTA | 0.223 |
| GGCATACC | -0.0258 |
| AAATATCA | -0.0887 |
| CATTTCGC | 0.106 |

Study 2 — method: competition protein-binding microarray; form: double-stranded DNA, one strand shown; matrix: in vitro; concentration: 2 µM; added: Cbf1 competitor, 0.05 µM; reading: higher = stronger binding
Target: Phosphate system positive regulatory protein PHO4, full length, GST-tagged (PHO4, Saccharomyces cerevisiae, UniProt P07270, residues 1-312)
Notes: whole 60-bp probe, lowest competitor level
Construct (chain): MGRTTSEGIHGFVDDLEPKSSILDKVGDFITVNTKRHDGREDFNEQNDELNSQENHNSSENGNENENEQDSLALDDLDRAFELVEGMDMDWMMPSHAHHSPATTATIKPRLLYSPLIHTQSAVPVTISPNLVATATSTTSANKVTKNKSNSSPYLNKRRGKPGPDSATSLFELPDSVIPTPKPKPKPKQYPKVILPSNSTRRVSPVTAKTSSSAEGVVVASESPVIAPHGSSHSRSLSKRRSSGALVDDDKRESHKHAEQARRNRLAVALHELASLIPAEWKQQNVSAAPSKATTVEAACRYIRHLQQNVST
| Oligonucleotide | fluorescence intensity |
| --- | --- |
| AAATTACTAAGTTGTACCGTGGGTGACGCCGTATGAGTCTTGATTCGCTTGACGCTGCTG | 5910 a.u. |
| CTTTCCCGATCTTGATTCGTGGGTGTAGCACATTTGGTCTTGATTCGCTTGACGCTGCTG | 6240 a.u. |
| GGTTTTCGATTGGGCCTCGTGATGGAACACATCAGCGTCTTGATTCGCTTGACGCTGCTG | 9260 a.u. |
| GTCTTGTCTCATTTTCACGTGTGATTCCCCACTTCAGTCTTGATTCGCTTGACGCTGCTG | 10600 a.u. |

Study 3 — method: universal PBM; form: double-stranded DNA, one strand shown; matrix: in vitro; concentration: not given; reading: higher = stronger binding
Target: Sal-like protein 4, full length isoform B (SALL4, Homo sapiens, UniProt Q9UJQ4-2, residues 1-616)
Notes: 8-mer, flanks averaged, mean of replicates
| Oligonucleotide | E-score |
| --- | --- |
| CACAGTTA | 0.139 |
| CGCGTGAC | -0.178 |
| CCCCATTA | -0.0613 |

Further values, each from its own experiment
| Substance | target | test | system | conditions | scale | quantity | result |
| --- | --- | --- | --- | --- | --- | --- | --- |
| PhoQ, residues 284 288 289 292 302 303 TTCLQL | PhoP, residues 12 14 15 18 19 FWNTL (Escherichia coli, UniProt P23836) | Sort-seq, measured: YFP reporter | E. coli | PhoQ-PhoP variant library, added: 10 µM Mg2+ | relative to: high Mg2+ state, higher = stronger signaling | fold induction | 12.3 |

For quick reference, copied from above (study 1):
| Oligonucleotide | E-score |
| --- | --- |
| CATTTCGC | 0.106 |
